Published values from different studies.
Compare with care: the assays were run in different laboratories. Values joined by “and” are separate records of one study, mostly repeats; a detail may differ.
ALK: ALK tyrosine kinase receptor (ALK, Homo sapiens, UniProt Q9UM73)
Chain of UniProt Q9UM73 (whole entry, looked up): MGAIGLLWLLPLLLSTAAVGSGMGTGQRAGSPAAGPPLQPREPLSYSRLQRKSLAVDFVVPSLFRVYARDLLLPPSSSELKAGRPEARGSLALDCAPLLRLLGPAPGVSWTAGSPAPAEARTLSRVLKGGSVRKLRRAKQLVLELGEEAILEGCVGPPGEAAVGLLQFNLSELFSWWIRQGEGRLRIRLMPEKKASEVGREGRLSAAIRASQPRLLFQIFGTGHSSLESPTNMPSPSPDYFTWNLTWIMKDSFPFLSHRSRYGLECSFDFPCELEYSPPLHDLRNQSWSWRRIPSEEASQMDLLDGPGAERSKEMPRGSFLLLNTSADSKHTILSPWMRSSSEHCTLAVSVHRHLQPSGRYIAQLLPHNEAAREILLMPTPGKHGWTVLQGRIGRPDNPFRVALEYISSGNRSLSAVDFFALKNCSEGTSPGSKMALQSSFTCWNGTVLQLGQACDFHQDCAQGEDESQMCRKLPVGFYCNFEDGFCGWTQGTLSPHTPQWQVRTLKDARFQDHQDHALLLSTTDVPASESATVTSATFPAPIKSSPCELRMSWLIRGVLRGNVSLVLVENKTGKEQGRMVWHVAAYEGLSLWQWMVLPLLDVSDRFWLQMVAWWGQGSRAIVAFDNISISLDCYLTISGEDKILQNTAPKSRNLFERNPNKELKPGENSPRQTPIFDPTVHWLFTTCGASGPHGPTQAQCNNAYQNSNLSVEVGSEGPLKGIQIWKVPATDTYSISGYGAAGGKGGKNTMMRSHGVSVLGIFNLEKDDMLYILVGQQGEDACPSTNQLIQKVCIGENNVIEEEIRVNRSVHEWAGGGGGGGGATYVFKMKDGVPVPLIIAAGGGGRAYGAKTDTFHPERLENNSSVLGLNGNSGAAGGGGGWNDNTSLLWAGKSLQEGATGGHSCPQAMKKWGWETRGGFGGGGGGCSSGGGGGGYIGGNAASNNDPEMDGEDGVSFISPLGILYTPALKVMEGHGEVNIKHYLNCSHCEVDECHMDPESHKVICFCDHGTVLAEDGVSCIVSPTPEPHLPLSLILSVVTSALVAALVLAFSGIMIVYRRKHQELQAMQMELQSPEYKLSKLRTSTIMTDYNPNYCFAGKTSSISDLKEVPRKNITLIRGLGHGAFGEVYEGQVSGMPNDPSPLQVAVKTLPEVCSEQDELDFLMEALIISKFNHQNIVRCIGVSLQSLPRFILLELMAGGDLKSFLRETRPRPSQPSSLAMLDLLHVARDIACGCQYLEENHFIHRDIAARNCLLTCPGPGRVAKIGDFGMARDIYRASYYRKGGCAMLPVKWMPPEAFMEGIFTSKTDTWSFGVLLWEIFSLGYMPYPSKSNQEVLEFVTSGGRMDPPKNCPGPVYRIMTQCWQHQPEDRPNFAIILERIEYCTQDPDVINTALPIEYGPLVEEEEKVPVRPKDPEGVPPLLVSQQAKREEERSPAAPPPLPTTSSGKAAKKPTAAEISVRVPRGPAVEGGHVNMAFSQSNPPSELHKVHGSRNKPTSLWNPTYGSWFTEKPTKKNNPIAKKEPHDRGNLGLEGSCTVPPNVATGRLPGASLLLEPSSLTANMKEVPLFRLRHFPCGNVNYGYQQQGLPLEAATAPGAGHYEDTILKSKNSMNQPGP

The inhibition of `C[C@H]1CN(C(=O)c2cn(-c3ccnc(N)n3)c3cc(C#CC4(O)CCCCC4)ccc23)CCN1` is reported as -1% (ALK; enzyme activity, inhibitor, FRET; 1 µM).
`Cc1[nH]nc2c1N=C(c1ccccc1Cl)c1cnc(N3CCOCC3)cc1N2` gave an inhibition of 70% (ALK; enzyme activity, inhibitor; 0.5 µM).
`O=C(Cc1ccc(OCc2ccccc2)cc1)NC1(C(=O)O)CCN(C(=O)c2ccc(-c3cccc(Cl)c3)cc2)CC1` — result for “activity vs control”: 141% (ALK; enzyme activity, inhibitor; 10 µM).
`NC(=O)[C@@H](O)C[C@H]1CCc2sc3ncnc(O[C@H]4CC[C@H](N5CCOCC5)CC4)c3c21` has an inhibition of 44% (ALK; enzyme activity, inhibitor; 10 µM).
`CN1CCN(Cc2ccc(-c3ccc(CO[C@H]4CCC[C@@H]4NC(=O)c4cc(-c5cnn(C)c5)cnc4N)cc3)cc2)CC1` has an inhibition of 0% (ALK; enzyme activity, inhibitor; 0.1 µM).
`CNC(=O)C[C@H](Cc1ccc(C#N)cc1)NC(=O)c1cc(-c2ccc(CN[C@H](C)c3ccc(C)cc3)o2)ccc1Cl` — result for “activity vs control”: 135% (ALK; enzyme activity, inhibitor; 1 µM).
`Cc1cccc(O[C@H]2CCC[C@@H](C(C)CNCc3ccncc3)C2)c1` (relative stereo) gave an inhibition of 1% (ALK; cell-free assay; 1 µM).
`Nc1ncc(-c2cc(-c3cnn(CC(F)(F)F)c3)ncc2F)nc1C(=O)NC1CNCC(F)C1` (stereo not shown) has a remaining activity of 86.7% (ALK; enzyme activity; 1 µM; reference: DMSO control).
The inhibition of `C=CC(=O)Nc1cccc(-c2cnc3[nH]cc(C(=O)NC(C)(C)C)c3n2)c1` is reported as 9% and 14% (ALK; kinase activity; 0.1 µM).
With `O=C=[N][Ru-4]123([n]4c5ccc(O)cc5c5c6c(c7cc(F)c[n+]1c7c54)C(=O)NC6=O)[S+]1CC[S+]2CC[S+]3CC1` (stereo not shown) the remaining activity was 60% (ALK; enzyme activity; 100 nM, human enzyme, added: 10 µM ATP; reference: untreated).
`COc1cc(Nc2nccc(-c3cnn4nc(OC)ccc34)n2)cc(C(F)(F)F)c1` has a remaining binding of 87% (ALK; binding, competition with immobilised ligand; 1 µM).
`COc1cc(N2CCN(C(=O)C3CCCN3)CC2)ccc1Nc1ncc(Cl)c(Nc2ccccc2P(C)(C)=O)n1` (stereo not shown) — result for “remaining protein level”: 60% (ALK tyrosine kinase receptor, EML4-ALK fusion (ALK, Homo sapiens, UniProt Q9UM73); degrader, immunoblotting; Ba/F3 ALK; 100 nM; reference: untreated).
`CN1CC[C@@H](COc2cnc(C#N)cc2-c2ccn3nc(NC(=O)C4CC4)cc3c2)C1` has an inhibition of 28% (ALK; enzyme activity, inhibitor; 1 µM).

Some of these lines once more:
The inhibition of `C[C@H]1CN(C(=O)c2cn(-c3ccnc(N)n3)c3cc(C#CC4(O)CCCCC4)ccc23)CCN1` is reported as -1% (ALK; enzyme activity, inhibitor, FRET; 1 µM).
